Measurements gathered from unrelated publications.
Each line is one published result; not all experiments were run side by side. ± marks the error that the study gave.

| SMILES | test | system | conditions | AUC(0-inf) [ng·h/mL] |
| --- | --- | --- | --- | --- |
| CCCC[C@H](NC(C)=O)C(=O)N[C@H]1CCC(=O)NC[C@@H](C(=O)N[C@@H](Cc2c[nH]c3ccccc23)C(N)=O)NC(=O)[C@H](CCCNC(=N)N)NC(=O)[C@@H](Cc2ccccc2)NC(=O)[C@H](Cc2c[nH]cn2)NC1=O | – | CD Sprague Dawley rat, female, plasma | subcutaneous, 1.0 mg/kg daily, day 1 | 907 |
| CNCc1cc(-c2ccccc2F)n(S(=O)(=O)c2cccnc2)c1 | – | Sprague-Dawley rat, plasma | oral, 10 mg/kg, dosed 30 min after voriconazole, together with: voriconazole 30 mg/kg single oral dose | 1550 ± 353 |
| CCc1cc2c(cc1N1CCC(N3CCOCC3)CC1)C(C)(C)c1[nH]c3cc(C#N)ccc3c1C2=O | – | moderate hepatic impairment, plasma, total | oral, 300 mg single, fed | 3280 |
| C[C@@H]1O[C@@H](OC[C@H]2O[C@@H](Oc3c(-c4ccc(O)c(O)c4)oc4cc(O)cc(O)c4c3=O)[C@H](O)[C@@H](O)[C@@H]2O)[C@H](O)[C@H](O)[C@H]1O | UPLC-MS/MS | Wistar rat, microcirculation dysfunction model, plasma | oral, 100 mg/kg Salvia miltiorrhiza stem-leaf extract FT | 174 ± 136 |
| O=C(CCCN1CCCN(c2ccc(Cl)cc2)CC1)c1ccc(F)cc1 | – | male Sprague-Dawley rats, plasma | intravenous, 1.7 mg/kg, together with: HAL 0.7 mg/kg plus BCT 0.1 mg/kg | 579 ± 130 |
| Cn1nnc2c(C(N)=O)ncn2c1=O | – | male athymic rat, intracranial U87 glioma, tumour extracellular fluid | oral, 50 mg/kg, recovery-corrected microdialysis, together with: after cediranib | 4000 |
| C[C@@H](CNCc1ccccc1)N1C[C@H](CCCNC(=N)N)N(CCc2cccc(F)c2)C1=S | – | rat, plasma | intravenous, 5 mg/kg | 1960 to 2680 |
| Nc1nc2c(ncn2COCCO)c(=O)[nH]1 | – | rat Sprague-Dawley | intravenous, 30 mg/kg, together with: leflunomide 30 mg/kg ip | 39700 ± 2780 |
| CC(C)=CCC[C@](C)(O[C@@H]1O[C@H](CO[C@@H]2O[C@H](CO)[C@@H](O)[C@H](O)[C@H]2O)[C@@H](O)[C@H](O)[C@H]1O)[C@H]1CC[C@]2(C)[C@@H]1[C@H](O)C[C@@H]1[C@@]3(C)CC[C@H](O[C@@H]4O[C@H](CO)[C@@H](O)[C@H](O)[C@H]4O[C@@H]4O[C@H](CO)[C@@H](O)[C@H](O)[C@H]4O)C(C)(C)[C@@H]3CC[C@]12C | – | Sprague Dawley rat, male, plasma | oral, 86 mg/kg, in red ginseng extract | 93600 ± 10500 |
| O=C(/C=C/c1ccc(O)c(O)c1)O[C@H](Cc1ccc(O)c(O)c1)C(=O)O | UPLC-MS/MS | Wistar rat, microcirculation dysfunction model, plasma | oral, 100 mg/kg Salvia miltiorrhiza stem-leaf extract FS | 224 ± 18.7 |
| CCC[C@@]1(CCc2ccccc2)CC(O)=C([C@H](CC)c2cccc(NS(=O)(=O)c3ccc(C(F)(F)F)cn3)c2)C(=O)O1 | – | Sprague Dawley rat, male, plasma | oral, 5 mg/kg, lipid-free formulation | 8730 ± 771 |
| CC(C)=CCC[C@](C)(O[C@@H]1O[C@H](CO)[C@@H](O)[C@H](O)[C@H]1O)[C@H]1CC[C@]2(C)[C@@H]1[C@H](O)C[C@@H]1[C@@]3(C)CC[C@H](O)C(C)(C)[C@@H]3[C@@H](O[C@@H]3O[C@H](CO)[C@@H](O)[C@H](O)[C@H]3O)C[C@]12C | – | Sprague Dawley rat, male, plasma | oral, 25 mg/kg, in frozen ginseng extract | 3800 ± 1800 |
| CCN(CC)Cc1cc(Nc2ccnc3cc(Cl)ccc23)ccc1O | – | rat, Wistar, male, plasma | oral, 60 mg/kg | 4010 ± 428 |
| O=C(O)/C=C/c1ccc(O)c(O)c1 | UPLC-MS/MS | Wistar rat, microcirculation dysfunction model, plasma | oral, 100 mg/kg Salvia miltiorrhiza stem-leaf extract FS | 55.3 ± 17.6 |
| C=CC(N)CCC(=O)O (centres unmarked) | – | male Sprague-Dawley rat, plasma | oral, 1.0 mg/kg, formulation 4, together with: proline and tryptophan 100 mg/kg each | 1770 ± 86 |
| CNC(=O)c1ccc(-c2cnc3ncc(Cc4ccc5ncccc5c4)n3n2)cc1F | – | moderate hepatic impairment | oral, 200 mg, geometric mean | 5700 |
| O=C(/C=C/c1ccc(O)c(O)c1/C=C/c1ccc(O)c(O)c1)O[C@H](Cc1ccc(O)c(O)c1)C(=O)O | UPLC-MS/MS | Wistar rat, microcirculation dysfunction model, plasma | oral, 100 mg/kg Salvia miltiorrhiza stem-leaf extract FS | 258 ± 213 |
| CC(C)=CCC[C@](C)(O[C@@H]1O[C@H](CO)[C@@H](O)[C@H](O)[C@H]1O)[C@H]1CC[C@]2(C)[C@@H]1[C@H](O)C[C@@H]1[C@@]3(C)CC[C@H](O[C@@H]4O[C@H](CO)[C@@H](O)[C@H](O)[C@H]4O[C@@H]4O[C@H](CO)[C@@H](O)[C@H](O)[C@H]4O)C(C)(C)[C@@H]3CC[C@]12C | – | Sprague Dawley rat, male, plasma | oral, 42 mg/kg, in white ginseng extract | 29900 ± 8900 |
| O=C(/C=C/c1ccc(O)c2c1[C@H](C(=O)O)[C@@H](c1ccc(O)c(O)c1)O2)O[C@H](Cc1ccc(O)c(O)c1)C(=O)O | UPLC-MS/MS | Wistar rat, microcirculation dysfunction model, plasma | oral, 100 mg/kg Salvia miltiorrhiza stem-leaf extract FS | 212 ± 42.5 |
| CC(C)=CCC[C@](C)(O[C@@H]1O[C@H](CO)[C@@H](O)[C@H](O)[C@H]1O)[C@H]1CC[C@]2(C)[C@@H]1[C@H](O)C[C@@H]1[C@@]3(C)CC[C@H](O)C(C)(C)[C@@H]3[C@@H](O[C@@H]3O[C@H](CO)[C@@H](O)[C@H](O)[C@H]3O[C@@H]3O[C@@H](C)[C@H](O)[C@@H](O)[C@H]3O)C[C@]12C | – | Sprague Dawley rat, male, plasma | oral, 45 mg/kg, in red ginseng extract | 7400 ± 1300 |

A few entries again:
| SMILES | test | system | conditions | AUC(0-inf) [ng·h/mL] |
| --- | --- | --- | --- | --- |
| Nc1nc2c(ncn2COCCO)c(=O)[nH]1 | – | rat Sprague-Dawley | intravenous, 30 mg/kg, together with: leflunomide 30 mg/kg ip | 39700 ± 2780 |
